Published values collected from several papers.
Lines come from different studies, so protocols differ.
Matrix: plasma

| SMILES | system | conditions | AUC [ng·h/mL] |
| --- | --- | --- | --- |
| O=C(c1ccccc1)N1C(c2ccc(OCC3CCN(CCCF)C3)cc2)c2ccc(O)cc2CC12CC2 (stereo not drawn) | C57BL/6 mouse | intraperitoneal, 25 mg/kg | 8350 |
| Cc1cc(O)cc(O)c1C(=O)c1c2c3c(c(O)cc(C)c3oc1=O)C(=O)c1c(O)cc(O)cc1-2 | male Kunming mouse | intraperitoneal, 30 mg/kg | 41600 |
| NC(=O)c1c(F)ccc(OCc2nc3cc(Cl)cnc3s2)c1F | mouse | intravenous, 3 mg/kg | 2420 |
| N#Cc1nc(N2CCOCC2)nc(N(Cc2ccc(F)cc2)CC2CCCNC2)n1 (stereo not drawn) | mouse | intraperitoneal, 10 mg/kg, single dose | 1010 |
| CC(C)(C)OC(=O)N[C@H](Cc1ccccc1)[C@@H](O)CN1CCC(N2CCCCC2)CC1 | Swiss mouse | subcutaneous, 20 mg/kg, single dose | 500 |
| COC1C=COC2(C)Oc3c(C)c(O)c4c(c3C2=O)C2=NC3(CCN(CC(C)C)CC3)NC2=C(NC(=O)C(C)=CC=CC(C)C(O)C(C)C(O)C(C)C(OC(=O)Nc2cnccn2)C1C)C4=O (stereo not drawn) | female CD-1 mouse | oral, 10 mg/kg | 55100 |
| CN(C)CCNC(=O)/C=C/[C@H](Cc1ccccc1)Nc1ccnc2cc(Cl)ccc12 | CD-1 mouse | oral, 5 mg/kg, single dose | 30.1 |
| CCc1nc(N)nc(N)c1C#C[C@H](C)c1cc(-c2ccncc2)ccc1OC | mouse | intraperitoneal, 16 mg/kg, single dose | 4900 |
| Nc1ccn(C[C@@H](CO)OCP(=O)(O)OCCCS(=O)(=O)CCCCCCCCCCCCCC2CCC2)c(=O)n1 | mouse | intravenous, 3 mg/kg, single dose | 807 |
| CCS(=O)(=O)c1ccccc1C(=O)N1CCN(c2nc3ccc(F)cc3s2)C[C@@H]1C | mouse | intravenous, 3 mg/kg | 1370 |
| CCc1nc(N)nc(N)c1C#C[C@H](C)c1cc(-c2cc(C)nc(C)c2)ccc1Cl | mouse | oral, 5 mg/kg | 2600 |
| COC1C=COC2(C)Oc3c(C)c(O)c4c(c3C2=O)C2=NC3(CCN(CC(C)C)CC3)NC2=C(NC(=O)C(C)=CC=CC(C)C(O)C(C)C(O)C(C)C(OC(=O)c2cccnc2)C1C)C4=O (stereo not drawn) | female CD-1 mouse | oral, 10 mg/kg | 43900 |
| Nc1ccn(C[C@@H](CO)OCP(=O)(O)OCCCS(=O)(=O)CCCCCCCCCCC2CCC2)c(=O)n1 | mouse | intravenous, 3 mg/kg, single dose | 333 |
| COC1C=COC2(C)Oc3c(C)c(O)c4c(c3C2=O)C2=NC3(CCN(CC(C)C)CC3)NC2=C(NC(=O)C(C)=CC=CC(C)C(O)C(C)C(O)C(C)C(OC(=O)Nc2cccnn2)C1C)C4=O (stereo not drawn) | female CD-1 mouse | oral, 10 mg/kg | 40300 |
| COc1cc(OC)c(F)c(/C=C/c2cnc3ccn(S(=O)(=O)c4cn(CCF)cn4)c3n2)c1F | CD-1 mouse | oral, 10 mg/kg | 434 |

A few entries again:
| SMILES | system | conditions | AUC [ng·h/mL] |
| --- | --- | --- | --- |
| N#Cc1nc(N2CCOCC2)nc(N(Cc2ccc(F)cc2)CC2CCCNC2)n1 (stereo not drawn) | mouse | intraperitoneal, 10 mg/kg, single dose | 1010 |
